Measured values collected from several papers.
A part holds a random share of what one study measured. Changes are numbered by the printed parent chain.

Series 1
Target: ABI1, truncated, D143A, DHFR fusion (Arabidopsis thaliana)
Technique: DHFR PCA, deep sequencing
Matrix: yeast
Setting: methotrexate growth selection, single substitutions
With: (+)-ABA 2500 µM
Reference: wild-type fitted maximum
Direction: higher = stronger binding
Starting sequence: PYL1, truncated, DHFR fusion (Arabidopsis thaliana); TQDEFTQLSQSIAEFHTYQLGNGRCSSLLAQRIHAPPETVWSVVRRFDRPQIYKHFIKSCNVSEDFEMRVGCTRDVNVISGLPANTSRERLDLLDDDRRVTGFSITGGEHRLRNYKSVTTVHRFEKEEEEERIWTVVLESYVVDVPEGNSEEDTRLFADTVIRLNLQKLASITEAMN; partner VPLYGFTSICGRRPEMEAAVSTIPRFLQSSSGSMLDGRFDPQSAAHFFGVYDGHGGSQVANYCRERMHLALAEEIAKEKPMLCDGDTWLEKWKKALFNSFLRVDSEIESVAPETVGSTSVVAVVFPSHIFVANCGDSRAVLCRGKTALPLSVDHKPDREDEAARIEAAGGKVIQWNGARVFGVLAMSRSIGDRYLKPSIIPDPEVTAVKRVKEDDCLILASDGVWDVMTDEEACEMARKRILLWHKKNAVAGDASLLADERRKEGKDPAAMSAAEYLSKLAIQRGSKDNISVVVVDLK
`T160M` — result for “relative binding score”: 97.2%.
`Q51W`: “relative binding score” 98.3%.
`S150L`: “relative binding score” 89.8%.
For `A13K`, “relative binding score” read 94.1%.
`T73P` — result for “relative binding score”: 77.5%.
`R98I` — result for “relative binding score”: 104%.
Under “relative binding score”, `G81M` is recorded as 68%.
For `V100M`, “relative binding score” read 99.3%.
`G108F`: “relative binding score” 57.6%.
`E151Y`: “relative binding score” 95%.
For `D97Q`, “relative binding score” read 94%.
`I133C` — result for “relative binding score”: 108%.
For `E151D`, “relative binding score” read 95.3%.
For `E130S`, “relative binding score” read 103%.

Series 2
Target: RNA binding protein fox-1 homolog 2, RRM domain, GST-SBP tag (RBFOX2, Homo sapiens, UniProt O43251-10, residues 100-194)
Technique: RNA Bind-n-Seq
Molecule type: RNA
Matrix: in vitro
Tested at: 365 nM
Setting: natural RNA segment, single round, ends assumed
Reference: no-protein control
Direction: higher = stronger binding
Constant ends, left off below: GGGAGUUCUACAGUCCGACGAUC … UGGAAUUCUCGGGUGCCAA
Residues (chain): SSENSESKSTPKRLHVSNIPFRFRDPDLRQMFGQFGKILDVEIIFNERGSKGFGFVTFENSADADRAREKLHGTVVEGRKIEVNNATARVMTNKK
`GGAAAAGCCUUUCAGCUCACCCAUGGCUGCUGUGACUCCUACCAGGGCUUUCUUGGCUUUGGCGAAGGUCAGUGUACAGACAUUCCAUGGUACCAGAGUGCUCAGAAACU`: “RBNS enrichment (R)” 0.205.
`UAUUUUCUAAACAGAUCUUUAAUGGACUAUUUAAACCGAAUUUAAGGAAUUCACACACGACAGUUGACAGGUCUUCACGCAGGCUGGUUGGUAACGUGCUGCCAGCACAG` — result for “RBNS enrichment (R)”: 0.299.
`GUUUCCUUUUUUGUUUUUAAAUCCUUCUCUAGUGACUGAAGAAAUUGUGAGUACAUAAUAUUUAGGUCAUGGUUAAGGAACAUUAAAAUAAACCUGCAGUUUAACAGAAU`: “RBNS enrichment (R)” 0.433.
For `UCUUUUAUAAAUAAGUUUUACAAAAUUUUCCUCUUUUGUUUAUUGACUAGAUUGUAUAUAAUUUUCUUUUUUCCAAAAUAUUGUGAUAAGAAAUUUCUAGACACAACAGC`, “RBNS enrichment (R)” read 1.85.
`GUGAUGGUUUAAAUCAAUUAAGUGGCAUUGGAAACCUAGGGUUUCCUUUUGAUUAAGAGCCUUUUUUGUUUCUGCUCUUUGUCAGCUUUCAGGGGAGAAGGAGGCCACUG`: “RBNS enrichment (R)” 0.792.
For `GAGGGAUUUGACCUUGUUCCCAAGGGAUUGAGAGUCUAGUGAGCAGCCCAGGGGCAAAGGCAGUCAACUUGCAUGUGAUACAAGACAGGCCAGGCAGAGCUGGUGUGACU`, “RBNS enrichment (R)” read 31.6.
For `AUCUGGUAUAGAGACCUGCAUUUUUACCUAACCUUCUAGACUCCUGAAAGGGAGUUAAAUGAAUUCACAUGAAGGGGUCGCCUGAGUCCCGCAGUUCCCCGCUCUGUACU`, “RBNS enrichment (R)” read 0.443.
`GUUAGCUGAAGAUGGGAAAGACUCAAGCCAUUGGGGUAAAGAUAACCAGAUUGAUCCAAUUGGCCAUGGGAGCUUAGGCCAUAGUCUUGGAAGUGAGCAGGACAAAGACC`: “RBNS enrichment (R)” 0.638.
`ACACCUAGAGGUUGAUUUCCUUUUUCAUCGAUGGUACUAUUUCUUAGUGUUUUAAAUUGGAACAUAUCUUGCCUCAUGAAGCUUUAAAUUAUAAUUUUCAGUUUCUCCCC`: “RBNS enrichment (R)” 0.365.
Under “RBNS enrichment (R)”, `AAACUGAGAAGCCUGUGAGUUGAUGCCGGUUCUCAAGCCGCAGAGCCUGGCUCUCAGAAGCCACGUUAGCGUCUCUCUCUCCUGCUGAUCGCUCGACACAGCACCUUUUC` is recorded as 12.7.
For `GCUUCUUGUCUUUAACAAAGUCUUUGUCUUCUAAGAGCAACCCCGCAGUAAACAACAGAGGGGUUGCUGGACUUGAGGGUGACGAGACAGAUGAUCAUAGCAGGGAUUUG`, “RBNS enrichment (R)” read 0.341.
`AAGACACUGGCCUGCAUCAGUUAGAGUCAGAGCAAGUGUCACUUCACAGGGAAAAGAAGGAUUAUAUAGACUUCCUAUCCCUAGAGUUUAUAAAUGUCAACUAUAUAAAA` — result for “RBNS enrichment (R)”: 0.399.

Series 3
Target: RING finger protein unkempt homolog, zinc fingers 1-6, GST-SBP tag (UNK, Homo sapiens, UniProt Q9C0B0, residues 30-357)
Technique: RNA Bind-n-Seq
Molecule type: RNA
Matrix: in vitro
Tested at: not given
Setting: RNA with constant flanks, human-mouse chimeric sites, ends assumed
Reference: input RNA pool
Direction: higher = stronger binding
Constant ends, left off below: GGGAGUUCUACAGUCCGACGAUC … CAACAGAGGAUUGAGCAUCA
Construct (chain): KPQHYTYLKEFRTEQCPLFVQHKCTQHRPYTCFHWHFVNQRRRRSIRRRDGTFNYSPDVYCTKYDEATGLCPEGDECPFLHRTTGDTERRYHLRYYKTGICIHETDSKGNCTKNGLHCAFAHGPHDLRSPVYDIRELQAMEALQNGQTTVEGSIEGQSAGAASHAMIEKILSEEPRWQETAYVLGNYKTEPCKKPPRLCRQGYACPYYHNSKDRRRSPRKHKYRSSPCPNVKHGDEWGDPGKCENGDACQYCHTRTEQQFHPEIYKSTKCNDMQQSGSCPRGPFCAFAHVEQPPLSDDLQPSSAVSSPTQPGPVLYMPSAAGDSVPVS
For `CCCCAAUACCAUUUGCAGGUCUGGAACCUGCAUUCUUUUUUUAAAAAACAUGUAUACAUUUUAGGGCUGUAGAUUUAUUUUCCUGGUUUUGUUUUUCAUUGCUGACUUUUGAGCACAGAA`, the bound/input enrichment was 1.24 ratio.
For `UACUCAACUUUCUUGCCACAUUUUGAAUUCCAAGAUGUUAUUCCUCCAGAUGACUUCCUAACGAGUGAUGAAGAAGUAGAUUUGGUUUUAUUUGGAACUAUGAGAGGACAAGUUGUUGGA`, the bound/input enrichment was 0.225 ratio.
For `GAAACAUUUAAAUUUAAAGAAGCUGUUGUUCUAGGAAGUACGGACUUUCUAGAAGAUGAUAUAGAGAAAAUUGUAGAAGAACUGGGAAAAGAAUACAAGGGCAACGCCUACCAUCUGAUG`, the bound/input enrichment was 1.16 ratio.
`AGAAAGCAAAACUUGGAAAGAUUUAAGAAAGGAGACGUAAGAUUCUUGAUUUGCACAGAUGUAGCUGCUAGAGGGAUUGAUAUCCACGGCGUUCCUUAUGUGAUCAACGUCACCCUGCCU` has a bound/input enrichment of 0.23 ratio.
The bound/input enrichment of `GUUGCCAGCUUCCGGUUGGCCUCCAUCCGGUUCUCUCCUGAGCUACGUGUCUCUACGCUCUCAAUCCGCCAUCCAACAAACAUGGAUCAGGUAAUGCAGUUUGUGGAUGAGCCAAGUCAG` is reported as 0.0629 ratio.
The bound/input enrichment of `UACUACUGAAUCUGUGAUAUUGGCAAUUAUUAUUAUGGCCAGGGUCAUCCCAUGAAGCCUCAUAGAAUCCGGAUGACCCAUAACUUGCUGCUAAAUUAUGGUUUAUACCGAAAAAUGGAA` is reported as 0.38 ratio.
`UACUACUAUGAUGGUGAUAUUGGCAAUUAUUAUUAUGGCCAGGGUCAUCCCAUGAAGCCUCAUAGAAUCCGGAUGACUCAUAACUUGCUGUUAAAUUAUGGUUUAUACAGAAAAAUGGAA` gave a bound/input enrichment of 0.126 ratio.
For `AGUGUGCAGGAAUUCAUGACCUUUACAAGUCAACUGAUUGUGGAACGCUCGGGGAAAGGCAGCAGAGCUUCUGUCAAAGAACAAGACUAUCUUUGCCAUGUCUACGUCCGGAGCGACAGU`, the bound/input enrichment was 0.124 ratio.

Series 4
Target: CCNA1, cyclin fold, Cln2 fusion (human)
Technique: yeast growth competition, sequencing
Matrix: yeast
Setting: weak parent motif
Reference: not given
Direction: higher = stronger binding
Starting sequence: PKMYT1 docking peptide (human); SFEPRNLLSLFED
Under “normalised enrichment score”, `SFEPRTLLSLFED [N6T]` is recorded as 0.127.
Under “normalised enrichment score”, `SFMPRNLLSLFED [E3M]` is recorded as 0.0941.
For `SFEPRNLLLLFED [S9L]`, “normalised enrichment score” read 0.123.
`SFEPRNLLPLFED [S9P]`: “normalised enrichment score” 0.322.
`SFEDRNLLSLFED [P4D]`: “normalised enrichment score” -0.013.
`SFEPRNLLSLFET [D13T]`: “normalised enrichment score” -0.0945.
For `SFEPFNLLSLFED [R5F]`, “normalised enrichment score” read 0.166.
For `SGEPRNLLSLFED [F2G]`, “normalised enrichment score” read 0.198.
`SFEPRNLLSLFEP [D13P]`: “normalised enrichment score” 0.231.
`SFEERNLLSLFED [P4E]` — result for “normalised enrichment score”: 0.107.
`SFDPRNLLSLFED [E3D]`: “normalised enrichment score” 0.18.
For `SFEPRDLLSLFED [N6D]`, “normalised enrichment score” read 0.144.
For `SFEPRNLLSLFGD [E12G]`, “normalised enrichment score” read -0.0976.
Under “normalised enrichment score”, `SFEPRNLSSLFED [L8S]` is recorded as 0.0151.
`SFEPRNLLSLLED [F11L]`: “normalised enrichment score” 0.0244.
For `SFEPRNLLSNFED [L10N]`, “normalised enrichment score” read 0.443.
`SFEPRNDLSLFED [L7D]`: “normalised enrichment score” 0.272.
`AFEPRNLLSLFED [S1A]` — result for “normalised enrichment score”: 0.149.
For `SFEPRNLLSGFED [L10G]`, “normalised enrichment score” read 0.291.
Under “normalised enrichment score”, `SFEPRNLLSLHED [F11H]` is recorded as 0.389.
For `SFEPRNTLSLFED [L7T]`, “normalised enrichment score” read 0.393.
Under “normalised enrichment score”, `SFEPRNLLSLPED [F11P]` is recorded as 0.132.
Under “normalised enrichment score”, `SAEPRNLLSLFED [F2A]` is recorded as 0.136.
For `SFEPRNLLQLFED [S9Q]`, “normalised enrichment score” read 0.188.
For `SWEPRNLLSLFED [F2W]`, “normalised enrichment score” read -0.118.
